# Experimental data from different studies.
# Lines come from different studies, so protocols differ.
Structure (SMILES),organism,test,system,setting,scale,endpoint,result
CCCCCCCCCC(=O)N[C@@H](Cc1c[nH]c2ccccc12)C(=O)N[C@H](CC(N)=O)C(=O)N[C@@H](CC(=O)O)C(=O)N[C@@H]1C(=O)NCC(=O)N[C@@H](CCCNC(=O)OC2/C=C/CCCCC2)C(=O)N[C@@H](CC(=O)O)C(=O)N[C@H](C)C(=O)N[C@@H](CC(=O)O)C(=O)NCC(=O)N[C@H](CO)C(=O)N[C@@H]([C@H](C)CC(=O)O)C(=O)N[C@@H](CC(=O)c2ccccc2N)C(=O)O[C@@H]1C (stereo partly drawn),Staphylococcus aureus,"planktonic bacterial growth, isothermal microcalorimetry",MSSA,"2.5 µg/mL, 24 h, 37 °C",,peak heat flow,0 µW
Cc1c(CN(C)C(=O)/C=C/c2cnc3c(c2)CC(N)C(=O)N3)oc2ccccc12 (stereo not drawn),Escherichia coli,broth microdilution,AR-0151,,,MIC,8 µg/mL
O=C1C(O)=C([C@H]2CC[C@H](c3ccc(Cl)cc3)CC2)C(=O)c2ccccc21,Toxoplasma gondii,"tachyzoite growth, luciferase",ME49-Fluc,,,EC50,99 nM
CCCOC(=O)N1c2cc(CNC)ccc2[C@H](NC(=O)C(=O)Nc2ccc(Cl)c(F)c2)[C@H]1CNC(=N)N,HIV-1,"pseudovirus infection, Env pseudovirus neutralisation","TZM-bl, clade B T/F isolate d15_410_787",,,IC50,280 nM
Cc1ccc(S(=O)(=O)Nn2c3c(cc(-c4nc5ccccc5s4)c2=O)CCCC3)cc1,hepatitis C virus,qRT-PCR,"Huh7.5, genotype 4",concentration not given,,viral load reduction,23.3%
O=Cc1c[nH]c2ccccc12,Parabacteroides distasonis,"bacterial growth, inhibitor, OD600",,anaerobic,,IC50,> 50000 nM
CC(C)(C)NCC(SS(=O)(=O)O)c1ccccc1 (stereo not drawn),Schistosoma mansoni,,infected mice,"400 mg/kg single, day 42, perfusion day 56",baseline: vehicle,female worm burden reduction,100%
O=S(=O)(CCC(F)(F)F)N[C@H]1CC[C@H](Nc2ncc3c(-c4ccccn4)n[nH]c3n2)CC1,Leishmania donovani,parasite growth,,amastigote,,EC50,330 nM
N=C(N)NCCC[C@@H]1NC(=O)[C@H](CCCNC(=N)N)NC(=O)[C@@H](CCCNC(=N)N)NC(=O)[C@@H](CCCNC(=N)N)NC(=O)[C@@H](C(c2ccccc2)c2ccccc2)NC(=O)[C@H](Cc2c[nH]c3ccccc23)NC(=O)[C@@H](C(c2ccccc2)c2ccccc2)NC1=O,Blastomyces dermatitidis,,BD-3,,,MIC,2 µg/mL
CC1(C)[C@H](NC(=O)/C(=N\OC2(C(=O)O)CC2)c2nsc(N)n2)C(=O)N1OS(=O)(=O)O,Serratia marcescens,agar dilution,"ATCC 21074, susceptible",,,MIC,1 µg/mL
Cc1cc(C(=O)Nc2nc3cccc(C)c3n2[C@H]2CCCCN(C(=O)/C=C/CN(C)C)C2)ccn1,Trypanosoma brucei brucei,,Lister 427,"5.56 µM, 0 h, kill kinetics",,proliferation,100%
N=C(N)NCCC[C@@H]1NC(=O)[C@H](CCCNC(=N)N)NC(=O)[C@@H](CCCNC(=N)N)NC(=O)[C@H](C(c2ccccc2)c2ccccc2)NC(=O)[C@H](C(c2ccccc2)c2ccccc2)NC(=O)[C@H](C(c2ccccc2)c2ccccc2)NC(=O)[C@H](CCCNC(=N)N)NC1=O,Blastomyces dermatitidis,,BD-3,,,MIC,2 µg/mL
CC1C=CC=CC(C)C2C=CC3CC(C)(O)C(Cl)C(C)C3C2C(=O)C(Cl)(Cl)C(=O)C(C)C(=O)O1 (stereo not drawn),Staphylococcus aureus,,MRSA clinical isolate,resistant PEN/CIP/MXF,,MIC,0.05 µg/mL
c1ccc(CC(c2c[nH]c3ccccc23)c2c[nH]c3ccccc23)cc1,Parabacteroides distasonis,"bacterial growth, inhibitor, OD600",,anaerobic,,IC50,> 50000 nM
FC(F)(F)c1cccc(CNc2nc(NC3CCN(Cc4ccccc4)CC3)c3nc[nH]c3n2)c1,Cryptococcus neoformans,microbial growth,,17 h,,MIC50,15 µg/mL
COC1C=COC2(C)Oc3c(C)c(O)c4c(c3C2=O)C2=NC3(CCN(CC(C)C)CC3)NC2=C(NC(=O)C(C)=CC=CC(C)C(O)C(C)C(O)C(C)C(OC(=O)Nc2cccnn2)C1C)C4=O (stereo not drawn),Mycobacteroides abscessus,"intracellular growth, visual read","THP-1 derived macrophages, ATCC 19977",,,IC50,44 nM
C=C(NC(=O)c1csc(-c2nc3c(cc2O)-c2nc(cs2)C(=O)NC(C(C)O)C(=O)NC(=C(C)OC)c2nc(cs2)C(=O)NC2c4nc(cs4)C(=O)NC(COC(=O)c4c5c6c(cccc6n4O)COC(=O)C(OC4CC(C)(O)C(N(C)C)C(C)O4)C2OC5)c2nc-3cs2)n1)C(N)=O (stereo not drawn),Streptococcus pneumoniae,,"ATCC 49619, immunocompromised mice, lung infection","24 h, tid dosing",,ED50,4.17 mg/kg
c1ccc2c([C+](c3c[nH]c4ccccc34)c3c[nH]c4ccccc34)c[nH]c2c1,Parabacteroides distasonis,"bacterial growth, inhibitor, OD600",,anaerobic,,IC50,> 50000 nM

# For quick reference, copied from above:
Structure (SMILES),organism,test,system,setting,scale,endpoint,result
FC(F)(F)c1cccc(CNc2nc(NC3CCN(Cc4ccccc4)CC3)c3nc[nH]c3n2)c1,Cryptococcus neoformans,microbial growth,,17 h,,MIC50,15 µg/mL
CCCOC(=O)N1c2cc(CNC)ccc2[C@H](NC(=O)C(=O)Nc2ccc(Cl)c(F)c2)[C@H]1CNC(=N)N,HIV-1,"pseudovirus infection, Env pseudovirus neutralisation","TZM-bl, clade B T/F isolate d15_410_787",,,IC50,280 nM
c1ccc(CC(c2c[nH]c3ccccc23)c2c[nH]c3ccccc23)cc1,Parabacteroides distasonis,"bacterial growth, inhibitor, OD600",,anaerobic,,IC50,> 50000 nM
